Measured values from different studies.
Each line is one published result; not all experiments were run side by side.

`CC1(C)SC2C(NC(=O)C(NC(=O)C3=C(O)C(Cc4ccsc4)NC3=O)c3ccccc3)C(=O)N2C1C(=O)O` (stereo not drawn) gave an MIC of 25 µg/mL (Escherichia coli; broth microdilution; BW25113, Mueller-Hinton broth; together with: CCCP 50 µg/mL).
For `CC1(C)S[C@@H]2[C@H](NC(=O)[C@H](N)c3ccccc3)C(=O)N2[C@H]1C(=O)O`, the MIC was 100 µg/mL (Streptococcus pyogenes; broth microdilution; MTCC 442, Mueller-Hinton broth; 48 h, 37 °C).
`C=C(C)[C@@H]1CC[C@]2(C)CC[C@]3(C)[C@H](CC[C@@H]4[C@@]5(C)CCC(=O)C(C)(C)[C@@H]5CC[C@]43C)[C@@H]12` has an MIC of 500 µg/mL (Nakaseomyces glabratus; broth microdilution; clinical isolate; 48 h, 37 °C).
The MIC of `Cc1cc(C)n(C(N)=S)n1.Cc1ccc(C(C)C)cc1.[Cl][Ru][Cl]` is reported as greater than 1000 µg/mL (Proteus vulgaris; broth microdilution; ATCC 8427; 24 to 48 h, 37 °C).
For `plantazolicin`, the MIC was greater than 48 µM (Streptococcus pyogenes; broth microdilution; M1; 12 h, 37 °C).
`CTCATACTCT` gave an MIC of 1.25 µM (Salmonella enterica Typhimurium; bacterial growth, broth microdilution; peptide, SL1344, MHB; 24 h, 37 °C).
`LSTFFRLFN` gave an MIC of greater than 256 µg/mL (Streptococcus gordonii; broth microdilution; peptide, ATCC 10558; 24 h, 37 °C, planktonic, anaerobic).
With `C=C(C)[C@@H]1CC[C@]2(C(=O)O)CC[C@]3(C)[C@H](CC[C@@H]4[C@@]5(C)CC[C@H](O)C(C)(C)[C@@H]5CC[C@]43C)[C@@H]12` the MIC was 500 µg/mL (Nakaseomyces glabratus; broth microdilution; clinical isolate; 48 h, 37 °C).
`CC1(C)SC2C(NC(=O)C(NC(=O)C3=C(O)C(c4ccccc4)NC3=O)c3ccccc3)C(=O)N2C1C(=O)O` (stereo not drawn) has an MIC of 50 µg/mL (Escherichia coli; broth microdilution; BW25113, Mueller-Hinton broth; together with: 2,2'-bipyridyl 30 µg/mL).
`O=C(O)c1cn(C2CC2)c2cc(N3CCNCC3)c(F)cc2c1=O` gave an MIC of 0.5 µg/mL (Klebsiella aerogenes).
The MIC of `CC1(C)SC2C(NC(=O)C(NC(=O)C3=C(O)C4CCCN4C3=O)c3ccccc3)C(=O)N2C1C(=O)O` (stereo not drawn) is reported as 200 µg/mL (Escherichia coli; broth microdilution; BW25113, Mueller-Hinton broth).
The MIC of `CC[C@@H]([C@H](C)O)n1ncn(-c2ccc(N3CCN(c4ccc(OC[C@@H]5CO[C@@](Cn6cncn6)(c6ccc(F)cc6F)C5)cc4)CC3)cc2)c1=O` is reported as 3.12 µM (Nakaseomyces glabratus; microbial growth; ATCC2001; 72 h).

Excerpt of the above:
`CC1(C)SC2C(NC(=O)C(NC(=O)C3=C(O)C(Cc4ccsc4)NC3=O)c3ccccc3)C(=O)N2C1C(=O)O` (stereo not drawn) gave an MIC of 25 µg/mL (Escherichia coli; broth microdilution; BW25113, Mueller-Hinton broth; together with: CCCP 50 µg/mL).
